Measurements from different studies.
Compare with care: the assays were run in different laboratories. ± gives the spread as reported. Values after ≈ are worked out from the molar mass of the structure shown.

Compound = COc1ccc2c(=O)c3ccc(Oc4ccc(OC(F)(F)F)cc4)cc3[nH]c2c1; target or system = Toxoplasma gondii; test = parasite growth, beta-galactosidase reporter; test system = HFF, RH; setting = 3 days; measurement = EC50; value = 0.379 nM
Compound = CC(C)(NC(=O)Nc1ccc(Cl)c(-c2nc(C(F)(F)F)cs2)c1)c1cccc(C(N)=NO)c1; target or system = Staphylococcus aureus; test system = Smith, RPMI medium; setting = added: 1 mM guanosine; measurement = MIC; value = > 40 µM
Compound = O=C(O)c1cccc(C#Cc2ccccc2)c1-c1ccc2cc[nH]c2c1; target or system = Epstein-Barr virus; test system = EBV-positive lymphoblastoid cells, mouse xenograft; setting = 30 mg/kg twice daily; measurement = tumour size; value = decreased
Compound = C/C(=C\C=C\[C@@H](C)[C@H]1CC[C@@]2(C)[C@@H]3CC[C@H]4C(C)(C)[C@@H](O[C@@H]5O[C@H](CO)[C@@H](O)[C@H](O)[C@H]5O[C@@H]5O[C@H](CO)[C@@H](O)[C@H](O)[C@H]5O[C@@H]5O[C@@H](C)[C@H](O)[C@@H](O)[C@H]5O)CC[C@@]45C[C@@]35CC[C@]12C)C(=O)N[C@@H]1C(=O)O[C@H](C)[C@@H]1C; target or system = Trypanosoma brucei brucei; test = Alamar Blue; test system = trypomastigote; measurement = IC90; value = 10600 nM
Compound = NC[C@@H](NC[C@@H]1CCCN1C[C@@H](CO)NC[C@@H](NCCc1ccc(-c2ccccc2)cc1)c1ccccc1)c1ccccc1; target or system = Escherichia coli; test = bacterial growth; setting = 16 µM, fold shift of IC50, added: amikacin; measurement = potentiation of amikacin; value = 0.9 fold
Compound = CN(C)c1cc(CN2CCOCC2)nc2nc(NCc3ccc(C(C)(C)C)cc3)nn12; target or system = Saccharomyces cerevisiae; test system = wild type; setting = 123 µg/mL, without pantothenic acid; measurement = growth inhibition; value = ~70%
Compound = CN1CC[C@]23c4c5ccc(O)c4O[C@H]2c2ncc(-c4ccc(Cl)cc4)cc2C[C@@]3(OCCCc2ccccc2)[C@H]1C5; test = tolerance; test system = CD-1 mouse, chemotherapy-induced neuropathy; setting = sc, 10 mg/kg twice daily, 4 days; measurement = days to zero efficacy; value = 5.2 days
Compound = CO[C@H]1[C@H](O[C@H]([C@H]2O[C@@H](n3ccc(=O)[nH]c3=O)[C@H](O)[C@@H]2O)[C@H](NCCCNC(=O)[C@@H](NC(=O)[C@@H](NC(=O)N[C@H](C(=O)O)C(C)C)[C@@H]2CCNC(=N)N2)[C@@H](OC(=O)CCCCCCCCCCCCNC(=N)N)C(C)C)C(N)=O)O[C@H](CN)[C@H]1O; target or system = Bacillus subtilis; test = alamar blue; test system = ATCC 6051; measurement = MIC90; value = 12.5 ± 0.158 µg/mL
Compound = CC(C)(NC(=O)Nc1ccc(Cl)cc1)c1cccc(C(=N)NO)c1; target or system = Staphylococcus aureus; test system = Smith, RPMI medium; setting = added: no guanosine; measurement = MIC; value = 4 ± 2 µM (≈ 1.39 µg/mL)
Compound = NCCNCCSc1ccccc1; test system = Swiss Albino mouse, female; setting = oral, 600 mg/kg, single dose, non-compartmental; measurement = mean residence time (MRT0-inf); value = 8.99 h
Compound = NCc1ccc(-c2ncc(OCC3CCNCC3)nc2-c2ccc(-c3ccoc3)cc2)cc1; target or system = Zika virus; test system = U87, FLR; setting = 300 nM, 48 h; measurement = infectious virus reduction; value = 68%
Compound = CO[C@H]1[C@H](O[C@H]([C@H]2O[C@@H](n3ccc(=O)[nH]c3=O)[C@H](O)[C@@H]2O)[C@H](NCCCNC(=O)[C@@H](NC(=O)[C@@H](NC(=O)N[C@H](C(=O)O)C(C)C)[C@@H]2CCNC(=N)N2)[C@@H](OC(=O)CCCCCCCCCCCCN(O)C(=N)N)C(C)C)C(N)=O)O[C@H](CN)[C@H]1O; target or system = Candida albicans; test = alamar blue; test system = 18 M; measurement = MIC50; value = > 35 µg/mL
Compound = CC(CCN[C@H](CN[C@H](CO)CN1CCC[C@H]1CN[C@H](CN)c1ccccc1)c1ccccc1)c1ccccc1 (stereo partly shown); target or system = Escherichia coli; test = bacterial growth; setting = compound alone; measurement = IC90; value = > 24000 nM
Compound = Nc1nc(N)c2c(Cl)c(CNc3ccc(C(=O)O)cc3)ccc2n1; target or system = Mycobacterium tuberculosis; test = intracellular growth; test system = THP-1; measurement = MIC90; value = 0.05 µM
Compound = CN1CC[C@H](c2c(O)cc(O)c3c(=O)cc(-c4ccc(F)cc4)oc23)[C@H](O)C1; target or system = HIV-1; test = viral replication; test system = HeLa-CD4-LTR/β-gal, LAI; measurement = EC50; value = 11.7 nM
Compound = C[C@H](CS)C(=O)N[C@H](Cc1c[nH]c2ccccc12)C(=O)O; target or system = Escherichia coli; test system = IMP-1 producing; setting = 10 µM, added: meropenem; measurement = MIC of meropenem; value = 32 µg/mL

Repeated from above:
Compound = CC(C)(NC(=O)Nc1ccc(Cl)cc1)c1cccc(C(=N)NO)c1; target or system = Staphylococcus aureus; test system = Smith, RPMI medium; setting = added: no guanosine; measurement = MIC; value = 4 ± 2 µM (≈ 1.39 µg/mL)
